Assay results from different studies.
Each numbered part is a random draw from the data of one study; scales do not carry over between parts.

Set 1 — technique: protein-binding microarray; form: double-stranded DNA, one strand shown; medium: in vitro; concentration: not given; direction: higher = stronger binding
Target: Transcription factor Sp1 (SP1, Homo sapiens, UniProt P08047, residues 1-785, full length assumed)
Chain of UniProt P08047 (whole entry, looked up): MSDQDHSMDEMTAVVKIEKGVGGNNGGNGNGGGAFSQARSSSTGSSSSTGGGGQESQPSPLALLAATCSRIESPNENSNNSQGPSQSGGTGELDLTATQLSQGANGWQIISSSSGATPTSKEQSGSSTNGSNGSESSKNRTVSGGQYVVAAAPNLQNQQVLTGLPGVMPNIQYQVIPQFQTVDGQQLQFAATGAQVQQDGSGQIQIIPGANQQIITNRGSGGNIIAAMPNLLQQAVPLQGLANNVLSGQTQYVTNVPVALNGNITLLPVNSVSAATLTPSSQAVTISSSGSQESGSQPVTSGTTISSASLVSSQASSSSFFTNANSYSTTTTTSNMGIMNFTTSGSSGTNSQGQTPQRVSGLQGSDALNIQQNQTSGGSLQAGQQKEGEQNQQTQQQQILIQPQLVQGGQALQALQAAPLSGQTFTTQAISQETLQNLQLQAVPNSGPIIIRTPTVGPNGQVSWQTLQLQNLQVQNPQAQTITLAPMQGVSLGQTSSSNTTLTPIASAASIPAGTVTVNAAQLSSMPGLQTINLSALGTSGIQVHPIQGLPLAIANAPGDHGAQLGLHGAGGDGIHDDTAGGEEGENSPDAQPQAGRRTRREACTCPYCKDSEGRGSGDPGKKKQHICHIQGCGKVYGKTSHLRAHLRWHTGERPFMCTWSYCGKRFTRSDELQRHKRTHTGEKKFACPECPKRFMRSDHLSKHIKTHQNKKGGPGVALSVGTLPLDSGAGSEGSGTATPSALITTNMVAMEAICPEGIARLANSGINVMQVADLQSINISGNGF
Setting: k-mer, scored over probes, only values ≥0.25
Sequence	E-score
ACATATAC	0.27
CGGGGAAC	0.281
AGAGGGGC	0.318
AGGGTTAT	0.291
GGGAGTGA	0.267
CGCCCACG	0.275
ACACCCCT	0.39
GGGATACA	0.252
CGGTAACA	0.255
TCCCCACA	0.311
GGCGGGAC	0.374
CCACACCC	0.435
AATGAACA	0.259
TAAGGGGA	0.315
ACATTGTC	0.261
ATGGGGAA	0.365
CCCCATAG	0.294
ATCCGCCC	0.382
AATGATAC	0.291
AACATACG	0.275
ACCCCTCG	0.278
CCCCATCA	0.337
CAGGCGGG	0.252

Set 2 — technique: RNA Bind-n-Seq; form: RNA; medium: in vitro; concentration: 365 nM; reference: no-protein control; direction: higher = stronger binding
Target: RNA binding protein fox-1 homolog 2, RRM domain, GST-SBP tag (RBFOX2, Homo sapiens, UniProt O43251-10, residues 100-194)
Setting: natural RNA segment, single round, ends assumed
Shared flanks, not repeated: GGGAGUUCUACAGUCCGACGAUC … UGGAAUUCUCGGGUGCCAA
Target sequence (chain): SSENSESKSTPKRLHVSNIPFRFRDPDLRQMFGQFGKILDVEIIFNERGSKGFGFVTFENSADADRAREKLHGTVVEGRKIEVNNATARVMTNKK
Sequence	RBNS enrichment (R)
UACAUGCCUGAUGGCACCUUACUCCAGCAGCCUCCAGGUGCUUUCAUUUUCACUUCCAGUCUAAGCCAGUGGCUCCUGCCACUGCCCUCCCAUUACCUAGAUGGCACCUC	0.42
AAUUUGAUUUCCAUUUUAAGGUGGUGUCUGUGCAGCUGGUGUCCCCGAUUCUGGCUGUCCUAUGUCCAGGAAGAAGCCCAUUUGUUGAGGCUGACCUUCCUGAUCAUACA	0.304
AAGGCUCCUAGUCAAAUGAUCCAAACCUUUAACAUCGUUUCUGAUGGUACCCAAGUUCACAUUUUAUUUUUAUUUUUUAUCAAAUUCUUAGAAAGAGUCAUAAGAAAAAA	0.8
UCUAGAGAAGGAUUCCUGGAUCUAGCUGGUCACGACGAUGUUUUCACCAAGGUCACAGGAGCAUUGCGUCGCUGAUGGGGUUGAAGUUUGGUUUGGUUCUUGUUUCAGCC	0.286
UCAACAUCUUAUUCUUUGGCCUUUCUUAAUUGAUGCUUUAUGGAGGCAGUGUUAACAUUGUACAGUGUAUGCAUAGAGGAGUCUCCUCUAUUUGAAGAACAAUGCAAAAU	1.24
UCAGUAAACUAGAAGUCCAGGGUUGCUUGGUUUACUGGUUUAUAAGAAAUCUGAAAGCACCUCUGACAUUCCUUUUAUUAACUCACCUCUCAGUUGAAAGAUUUCUUCUU	0.354
UCCCCAGUGAAUUCCCAACACCUUGACUUCCUCAUUUCAGUGCUAAUAACCUGUUUUGUGUGCAGUUAAUCCAUUCUGAAGCAGGUGAAAGGUCAGUAUUUUAGCAUUUU	0.664
GGAAGAACAGCCUUUUGCAUCUGAGGCGACCAUUUUUACACCAUGCAGAUCUUCGUGGUUAUCAUCUCAAAGCCAUGUUCAGCAGCAGCGUUUGGACAGCAGUGUUCUGU	0.965
GUUUUGAAGGUUCUCAUGGUGCACAGCAGUGUGUAUGUGGUGUACAACAGUGUGUAUGCAGCCGUGCUUACAGCCUGUGGUUGCUACCUGUUGUACCAGUCUGACCAGUG	0.392
CCCCAUCUCUACCAACAAAGUGUAUUCUUCAUAGAUAUUAGAUAAAUCUUCCAGGCUUCAUCAUCAAGAGGGGAAGGGACCUUAAUUCUAGGGUCUCCCCUUUACCCUCU	0.905
CCAUCCACAGUUGUCAGUUGUGAAGAGGGGCCAGAUGACACCCUAAAGCAGGCUGAUCGGGCAAUGGGAGGUGGCCAGGCCUGCCAGCCCCUCGGCUCUGCCGCGGUGGG	0.467
AGGCCUCUGCUCCUGCGCCUGCCUGCAUGCUCUCUCUUGUCGUUGGAGCCUGGAGCCUUGCUCUCUGGGCACAGAGGGCUCUGCUCUCCUGCCUGCUGGGACCUGUGGAU	1.61

Set 3 — technique: RNA Bind-n-Seq; form: RNA; medium: in vitro; concentration: 100 nM; reference: input RNA pool; direction: higher = stronger binding
Target: RING finger protein unkempt homolog, zinc fingers 1-6, SBP tag (UNK, Homo sapiens, UniProt Q9C0B0, residues 30-357)
Chain of UniProt Q9C0B0 (30-357, looked up): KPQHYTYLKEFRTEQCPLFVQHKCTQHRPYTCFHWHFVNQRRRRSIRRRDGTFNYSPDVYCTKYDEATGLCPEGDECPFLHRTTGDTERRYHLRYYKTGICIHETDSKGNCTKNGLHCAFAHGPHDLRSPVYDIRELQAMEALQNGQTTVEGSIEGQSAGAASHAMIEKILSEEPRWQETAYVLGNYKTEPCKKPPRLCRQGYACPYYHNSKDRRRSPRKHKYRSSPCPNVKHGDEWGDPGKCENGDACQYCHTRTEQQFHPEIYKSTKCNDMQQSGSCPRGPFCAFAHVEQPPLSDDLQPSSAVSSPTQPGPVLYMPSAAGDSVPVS
Setting: RNA with constant flanks, vertebrate orthologous sites, ends assumed
Shared flanks, not repeated: GGGAGUUCUACAGUCCGACGAUC … CAACAGAGGAUUGAGCAUCA
Sequence	bound/input enrichment
GGAGCAGCAUAGGCUGUUCAUGCUUUGGGAAAAUGAGCUUUGCUUUUUUAAAUAUUUAAAUAGGAUACUUUUAUAUGAUGGGUGCUUUGAGUGUGAAUGCAGCAGGCUCCAUUUCUGAGG	0.991 ratio
CACAUCUGGCGAUAUUUGGCCUGGCCUUUCAGCUUAUGAUAAUAGUCCCCGGUCACCCCAUAGUCCUUCACCUAUUGCUACACCACCUAGUCAGAGCUCAUCUUGUUCUGAUGCCCCCAU	1.04 ratio
UGCAAUGCACAACCAUGACCUUGCAUGAUGUGGCUAGACACAGGAGAAAGUUUAAAACAUUACAUCCAAGUUUAACACAUCACAGUGGAACUUCUGUCUCUUUUGUGUUACGUCCAGCCU	0.37 ratio
UGGGUUAUUCCUAUUAUUAUCAAGUAGCUGGAAUUGUGAAGGUCGGAGUAGUUAGAUCUUUAGCUUUUAUUCCUUUUUUUUUGUAUUACUAUCCAUGUGUAUAAAUUAUUGAUCAUGUUG	2.42 ratio
CCCAUGGCUGCUUUGUAUCACCUCAGUGAGUUACAGUCCCCCUUGGCAUUUAGUUGGUACUAGAGCCAGUCAUCCUUAACAAAUCUUUUCACAUUUUAUUUCUUUCACACGUAGUCAUCU	2.79 ratio
GAAAUGGCCAGUGGAGGAAUACCUGCCUUGGCCUUGCCUCCCCUCCUUGCCACCUGCCCCUAGGUAUUUUUUUUUUAACCACCACAUGAAUCCGGUUGGCACUUCCUCCCCUGACCAGCU	2.49 ratio
UCAGAUCUAAGCCAACAGCAGUUCUAAAAUGCUAUUUAUUUGUGUCUGUAAGUUUGUACAUAGUAGUAUCAACCUCAUAUUGUUGCAGAAUUUUCCCCCCCCGCAAGUUUGAGUUGUGUU	0.632 ratio
AAGGUGGGAGAGGUACCUUAAACUGGAAUAAUAAGAAAGGGAAACAGAAUGACGCUGGUACAGAAAAAUCAGAAGGAAAGCUUUGCAAAACCGUCCAACAGAACUGCAGUACAAGAUGCA	0.415 ratio
GGGACGCUUUGAUGUAAAGAUUGAAGUUAAGAGCUGAUCACAAGCACAAAUCUUUCCCACUAGCCAUUUAAUAAGUUAAAAAGAUACAAAAACCUACUAGUCUUGAACAAACUGUCAUAC	2.36 ratio
GUGUUGGUGCAGAGUGCUCUGUACCAGUGCUCAUCAUCCCUUCUUCAUACCAACUGUCCCUAGUUAUAGGAAUUUAAUAUUUUUAAAAGUUUUACAUUGCUGUAUAUUCAAAGAUUUGUU	1.02 ratio
UGGGUUACUCCUAUUAUUAUCAAGUAGCUGGAAUUGUGAAGGUUGGAGUAGUUAGAUCUUUAGCUUUUAUUCCUUUUUUUUGUAUUACUAUCCAUGUGUAUAAAUUAUUGAUCAUGUUGC	2.67 ratio

Set 4 — technique: protein binding microarray; form: double-stranded DNA, one strand shown; medium: in vitro; concentration: not given; reference: not given; direction: higher = stronger binding
Target: Histone acetyltransferase KAT6A, both winged helices, GST fusion (KAT6A, Homo sapiens, UniProt Q92794, residues 1-181)
Setting: 8-mer, flanks averaged, mean of 2 arrays, mostly near background
Construct (chain): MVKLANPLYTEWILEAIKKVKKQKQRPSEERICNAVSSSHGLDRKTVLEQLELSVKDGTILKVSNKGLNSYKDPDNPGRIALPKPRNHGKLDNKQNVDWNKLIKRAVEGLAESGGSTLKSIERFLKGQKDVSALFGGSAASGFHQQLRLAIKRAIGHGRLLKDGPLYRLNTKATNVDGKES
Sequence	E-score
CACATCTG	-0.123
CTGCTCAA	-0.162
TACAGGCA	-0.143
GACGGCTC	0.218
AAGTGTTA	-0.146
CGAAATCG	0.227
ACTAGTTC	-0.0425
ACTTGACC	-0.153
GGTTTCCA	-0.149
ATAAAGAC	-0.094
AGGAGGGG	-0.238
CCTAGCCA	-0.218
AACCGTAG	0.0565
CCGCGAGA	0.238
TTATTCAA	0.0767
AACGGACT	0.111
GCTCGATA	0.0326
CCATCAGA	-0.0642
CAACGGTC	0.0813
CAGGCCTA	-0.122
CGTCAACG	0.136
CTGAATGC	-0.0242
CAAGATAC	-0.0301
AACAACGC	0.0974
CGTTAGAA	0.0769

Excerpt of the above (set 1):
Sequence	E-score
ATGGGGAA	0.365
GGGATACA	0.252
TAAGGGGA	0.315
CGGGGAAC	0.281
AATGAACA	0.259
TCCCCACA	0.311
CGCCCACG	0.275
AATGATAC	0.291
CCCCATAG	0.294
